Experimental data collected from several papers.
Protocols differ between the studies behind these lines. “And” joins repeats or separate records; there may be more than shown. Numbers after ± are the reported error.
rep main protease: Replicase polyprotein 1ab, main protease (rep, Severe acute respiratory syndrome coronavirus 2, UniProt P0DTD1)
rep papain-like protease: Replicase polyprotein 1ab, papain-like protease (rep, Severe acute respiratory syndrome coronavirus 2, UniProt P0DTD1)

The inhibition of `CC(=O)Oc1cccc2c1C(=O)C=CC2=O` is reported as 101% (rep main protease; enzyme activity, inhibitor; 1 µM).
For `O=C(NC1CCC(F)(F)CC1)C(c1cncnc1)N(C(=O)C(F)Cl)c1ccc(OC(F)(F)F)cc1` (centres unmarked), the inhibition was 99.6% (rep main protease; enzyme activity, inhibitor; 0.926 µM).
For `O=S(=O)(/N=c1/ssc(-c2ccccc2)c1Cl)c1ccccc1`, the inhibition was 94.7% (rep main protease; enzyme activity, inhibitor; 100 µM).
`Nc1nnc(SC2CC(=O)N(c3cccc4ccccc34)C2=O)s1` (centres unmarked) has an inhibition of 97.6% (rep main protease; enzyme activity, inhibitor; 10 µM).
`O=C(O)C[C@H](NC(=O)c1ccccc1[Se][Se]c1ccccc1C(=O)N[C@@H](CC(=O)O)C(=O)O)C(=O)O` gave an inhibition of 97.8% (rep main protease; enzyme activity, inhibitor; 40 µM).
The inhibition of `O=C(c1ccc([N+](=O)[O-])c(-n2ccnc2)c1)N(c1cccc(Cl)c1)c1nc2ccccc2s1` is reported as 9 ± 0.5% (rep main protease; reporter gene, inhibitor; HEK293T; 10 µM, secondary screen, wild type).
The inhibition of `CCOC(=O)CNC(=O)c1ccccc1[Se][Se]c1ccccc1C(=O)NCC(=O)OCC` is reported as 107% and 104% (rep main protease; enzyme activity, inhibitor; 40 µM).
`Cn1c(=O)c2c(nc3n(CC#Cc4ccc(Cl)c(Cl)c4)ccn23)n(C)c1=O` has an inhibition of 100% (rep main protease; enzyme activity, inhibitor, fluorescence; 10 µM, pH 7.2).
The inhibition of `O=C(O)CNC(=O)c1ccccc1[Se][Se]c1ccccc1C(=O)NCC(=O)O` is reported as 101% (rep main protease; enzyme activity, inhibitor; 40 µM, mean of repeats).
`C[C@](C(=O)NC1CCOCC1)(c1cncnc1)N(C(=O)[C@H](F)Cl)c1ccc(OC(F)(F)Cl)cc1` gave an inhibition of 44.8% (rep main protease; enzyme activity, inhibitor; 14 nM).
The inhibition of `COc1cc(Oc2c(O)c(Br)c(C)c(Br)c2OC)c(C(=O)O)c(C)c1O` is reported as 32.5% (rep main protease; enzyme activity, inhibitor, FRET; 10 µM).
Under inhibition, `CNc1nc(NC(CCO)c2ccccc2Cl)nc(N2CCN(C(=O)CCl)CC2)n1` (centres unmarked) is recorded as “inhibited” (rep main protease; inhibitor; 1 µM).
With `C[C@](C(=O)NC1CCC(F)(F)CC1)(c1cncnc1)N(C(=O)[C@H](F)Cl)c1ccc(OC(F)(F)F)cc1` the inhibition was 41.6% (rep main protease; enzyme activity, inhibitor; 34 nM).
`COC(=O)[C@H](C)n1[se]c2ccccc2c1=O` has an inhibition of 105% (rep main protease; enzyme activity, inhibitor; 40 µM, mean of repeats).
`O=C1c2ccccc2C(=O)c2oc(-c3ccccc3)nc21` gave an inhibition of ≤ 50% (rep papain-like protease; enzyme activity, inhibitor; 60 µM).
The inhibition of `O=c1c2ccccc2[se]n1-c1cccc(C(F)(F)F)c1` is reported as 19.2% (rep main protease; enzyme activity, inhibitor; 0.3 µM).
`NS(=O)(=O)c1ccc(CCNC(=O)OC(=O)c2ccccc2NC(=O)c2ccco2)cc1` gave an inhibition of 0% (rep papain-like protease; enzyme activity, inhibitor; 100 µg/mL).
For `O=C(NC1CCN(c2ncnc3[nH]cnc23)CC1)c1cccc(NS(=O)(=O)c2ccc(C(F)(F)F)cc2)c1`, the inhibition was 11.6% (Replicase polyprotein 1ab, nsp14 with nsp10 (rep, Severe acute respiratory syndrome coronavirus 2, UniProt P0DTD1); exonuclease activity; SARS-CoV-2; 50 µM).
The inhibition of `CC(=O)Nc1ccc(S(=O)(=O)NNc2ncnc3sccc23)cc1` is reported as 23% (Replicase polyprotein 1ab, nsp3 macrodomain (rep, Severe acute respiratory syndrome coronavirus 2, UniProt P0DTD1); ADP-ribosylhydrolase activity, inhibitor, gel-based de-MARylation; 10 µM, SARS-CoV-2 Mac1).
`COC(=O)c1cc2c(=O)n3ccccc3nc2n1Cc1ccccc1` has an inhibition of 62% (rep main protease; enzyme activity, inhibitor; 1 mM).
For `COC(=O)Cn1[se]c2ccccc2c1=O`, the inhibition was 102% (rep main protease; enzyme activity, inhibitor; 40 µM, mean of repeats).
The inhibition of `O=C(Oc1ccc(OC(=O)c2ccc(C(=O)Nc3ccccc3C(=O)O)c(C(=O)O)c2)cc1)c1ccc(C(=O)Nc2ccccc2C(=O)O)c(C(=O)O)c1` is reported as 0% (rep papain-like protease; enzyme activity, inhibitor; 100 µg/mL).
For `N[C@H](C[Se][Se]C[C@@H](N)C(=O)O)C(=O)O`, the inhibition was 54.5% (rep main protease; enzyme activity, inhibitor; 40 µM, mean of repeats).
Under inhibition, `CC(=O)N1CSC[C@H]1C(=O)NCC(=O)OCCN1C(=O)CCC1=O` is recorded as “no inhibition” (rep main protease; enzyme activity, inhibitor; up to 400 µM).
The inhibition of `O=C(NC1CCC(F)(F)CC1)C(c1cncnc1)N(C(=O)C(F)Cl)c1ccc(-c2cncs2)cc1` (centres unmarked) is reported as 8.86% (rep main protease; enzyme activity, inhibitor; 3.8 nM).
`COc1ccc(NC(=O)Cn2c(=O)n(CCC(=O)NC3CCCC3)c(=O)c3cc(OC)c(OC)cc32)cc1` gave an inhibition of 3.6% (rep main protease; enzyme activity, inhibitor; 100 µg/mL).
The inhibition of `COc1cc(-n2[se]c3ccccc3c2=O)ccn1` is reported as 29.7% (rep main protease; enzyme activity, inhibitor; 0.3 µM).
`CC[C@@H](C)[C@@H](C(=O)OC)n1[se]c2ccccc2c1=O` gave an inhibition of 103% (rep main protease; enzyme activity, inhibitor; 40 µM).
`COc1ccc(-c2cc(=O)c3c(O)cc(O)c(-c4cc(-c5cc(=O)c6c(O)cc(OC)cc6o5)ccc4OC)c3o2)cc1` has an inhibition of 32.3 to 34.1% (rep papain-like protease; enzyme activity, inhibitor; 20 µM).

Some of these lines once more:
`COc1ccc(NC(=O)Cn2c(=O)n(CCC(=O)NC3CCCC3)c(=O)c3cc(OC)c(OC)cc32)cc1` gave an inhibition of 3.6% (rep main protease; enzyme activity, inhibitor; 100 µg/mL).
The inhibition of `COc1cc(-n2[se]c3ccccc3c2=O)ccn1` is reported as 29.7% (rep main protease; enzyme activity, inhibitor; 0.3 µM).
`CC[C@@H](C)[C@@H](C(=O)OC)n1[se]c2ccccc2c1=O` gave an inhibition of 103% (rep main protease; enzyme activity, inhibitor; 40 µM).
